Published values from different studies.
± marks the error that the study gave.

| Compound | test | system | conditions | how to read | solubility |
| --- | --- | --- | --- | --- | --- |
| CC(C)=CCC[C@](C)(O)[C@H]1CC[C@]2(C)[C@@H]1[C@H](O)C[C@@H]1[C@@]3(C)CC[C@H](O)C(C)(C)[C@@H]3CC[C@]12C | – | Capmul MCM EP | 72 h, 25 °C | – | 10600 ± 1440 µg/mL |
| CN(C)C(=S)[S][Pd][c]1ccccc1C(=O)N=P12CN3CN(CN(C3)C1)C2 | – | DMSO:water 1:99 | – | – | 700 µM |
| O=S(=O)(O)c1cc(O)c(O)c(S(=O)(=O)O)c1 | UV-vis spectroscopy | 1 M H2SO4 with 20 wt% sodium xylenesulfonate | – | – | 30000 ± 50000 µM |
| CCCC1OC2CC3C4CCC5=CC(=O)C=CC5(C)C4C(O)CC3(C)C2(C(=O)COC(=O)CN)O1 (stereo not shown) | HPLC | water | 72 h, 25 °C | – | 0.402 g/100 g |
| O=C(N=P12CN3CN(CN(C3)C1)C2)c1cccc[c]1[Pd].O=C(N=P12CN3CN(CN(C3)C1)C2)c1cccc[c]1[Pd]([Br])[Br] | – | DMSO:water 1:99 | – | – | 400 µM |
| CC(C)(O)Cn1nc(-c2ccc3nc(OC(F)F)ccc3c2)c2c(N)ncnc21 | – | – | pH 2 | – | 95.1 µM |
| C[C@@H]1O[C@H](NC(=O)c2ccc(S(N)(=O)=O)cc2)[C@H](O)[C@H](O)[C@H]1O | – | water | – | – | 1% |
| CC(=Nc1ccccc1)c1c(C)cc(=O)n(O)c1O | – | – | pH 1.6 | – | ≥ 200 µM |
| Cc1cccc(-c2cc(C#N)cc(Oc3c(C(F)(F)F)ccn(Cc4n[nH]c(=O)n4C)c3=O)c2)c1 | HPLC | aqueous buffer | pH 2.0 | – | 1.9 µg/mL |
| [2H]C([2H])(c1ccccc1)C([2H])([2H])N1C(=O)CC(=O)N(C([2H])([2H])C([2H])([2H])c2ccccc2)C1=O | – | – | – | – | 62.5 µM |
| Cc1cc2c(c(=O)o1)C=C1CCC(C(C)CNCc3ccc(O)cc3)CC1O2 (stereo not shown) | – | water | – | – | ≤ 720 µM |
| O=C1c2ccc(S(=O)(=O)O)cc2C(=O)c2cc(S(=O)(=O)O)ccc21 | UV-vis spectroscopy | 1 M H2SO4 without hydrotrope | pH 0 | – | 830000 ± 30000 µM |
| COc1ccc2ccc3c(c2c1)C=[N+]1C2CCCCC2[N+]2=Cc4cccc(OC)c4[O][Au-]21[O]3.F[P-](F)(F)(F)(F)F (stereo not shown) | – | PBS-DMF | pH 7.4 | – | 54.7 µM |
| CC(C)C[C@H](NC(=O)[C@H](CC(C)C)NC(=O)[C@H](CCCNC(=N)N)NC(=O)[C@@H](N)CC(N)=O)C(=O)N[C@@H](CC(C)C)C(=O)N[C@H](C(=O)NCC(=O)O)[C@@H](C)O | – | – | – | – | ~1500 µM |
| CN(Cc1cc(C2CC2)on1)C(=O)c1cccc(-c2ccc3c(c2)CCO3)c1 | – | RPMI/MOPS medium | – | – | 64 µg/mL |
| CSCC[C@H](NC(=O)[C@H](CCCCN)NC(=O)[C@H](CO)NC(=O)[C@H](CC(C)C)NC(=O)[C@H](Cc1c[nH]cn1)NC(=O)[C@H](CCCNC(=N)N)NC(=O)[C@H](CCC(=O)O)NC(=O)[C@H](CCC(=O)O)NC(=O)[C@@H]1CCCN1C(=O)[C@@H](NC(=O)[C@@H](NC(=O)[C@H](C)NC(=O)[C@H](C)NC(=O)[C@H](CC(=O)O)NC(=O)[C@@H](NC(=O)[C@H](CCC(=O)O)NC(=O)[C@@H](NC(=O)[C@@H](NC(=O)CN)C(C)C)C(C)C)C(C)C)C(C)C)[C@@H](C)OP(=O)(O)O)C(=O)N[C@@H](CCC(N)=O)C(=O)N[C@@H](CCC(N)=O)C(=O)N[C@@H](CC(N)=O)C(=O)NCC(=O)N[C@@H](Cc1ccc(O)cc1)C(=O)O | – | HEPES buffer with DTT | pH 6.9 | lower limit | ≥ 10000 µM |
| COC(=O)[C@H]1O[C@@H](NC(=O)c2ccc(S(N)(=O)=O)cc2)[C@H](O)[C@@H](O)[C@@H]1O | – | water | – | – | 1% |

| Compound | test | system | conditions | how to read | solubility |
| --- | --- | --- | --- | --- | --- |
| CN(C)CCNC(=O)c1cccc2c(NCCCCc3c(N)nc(N)nc3N)c3ccccc3nc12 | – | MOPS buffer, 300 mM NaCl, 1% DMSO | pH 7 | – | ≥ 500 µM |
| CCCCCCCCCCCCCCCCCC(=O)O[C@@H](C(=O)O[C@H]1C[C@@]2(O)[C@@H](OC(=O)c3ccccc3)[C@@H]3[C@]4(OC(C)=O)CO[C@@H]4C[C@H](O)[C@@]3(C)C(=O)[C@H](O)C(=C1C)C2(C)C)[C@@H](NC(=O)OC(C)(C)C)c1ccccc1 | – | BALB/c mouse plasma | 24 h, room temperature | – | 57.5 ± 2.6 µg/mL |
| CC1(C)C(/C=C/C2=C(Cl)C(=C/C=C3/N(CCCCCC(=O)O)c4ccccc4C3(C)C)/C[N+](C)(C)C2)=[N+](CCCCCC(=O)O)c2ccccc21 | UV absorbance | PBS | – | – | 50 µM |
| CCCCCCCCCCCC(=O)O[C@@H](C(=O)O[C@H]1C[C@@]2(O)[C@@H](OC(=O)c3ccccc3)[C@@H]3[C@]4(OC(C)=O)CO[C@@H]4C[C@H](O)[C@@]3(C)C(=O)[C@H](O)C(=C1C)C2(C)C)[C@@H](NC(=O)OC(C)(C)C)c1ccccc1 | – | Miglyol 808 | 24 h, room temperature | – | 523000 ± 18200 µg/mL |
| Nc1ccn(CC2COP(=O)(OCCCCCCCCCCCCNC(=O)CCCCC3SCC4NC(=O)NC43)CO2)c(=O)n1 (mixture of isomers) | – | – | – | – | 13200 ± 980 µg/mL |
| C=C(c1ccc(C(=O)O)c(F)c1)c1cc2c(cc1C)C(C)(C)C=CC2(C)C | – | deionized water | 24 h, 20 °C | – | 15 ± 1 µM |
| CCCCCCCCCCCCCCCCCCCCCC(=O)O[C@@H](C(=O)O[C@H]1C[C@@]2(O)[C@@H](OC(=O)c3ccccc3)[C@@H]3[C@]4(OC(C)=O)CO[C@@H]4C[C@H](O)[C@@]3(C)C(=O)[C@H](O)C(=C1C)C2(C)C)[C@@H](NC(=O)OC(C)(C)C)c1ccccc1 | – | BALB/c mouse plasma | 24 h, room temperature | – | 34.4 ± 0.6 µg/mL |
| NS(=O)(=O)NCC(F)(F)c1ccccc1F | shake-flask | water | pH 9.2 | – | 9200 µg/mL |
| O=C1CC[C@H](N2Cc3cc(-c4ccn5ncc(Cl)c5n4)ccc3C2=O)C(=O)N1 | – | DMSO | – | – | 20000 µM |
| CC(C)(O)Cn1cc(-c2ccc3nc(OC(F)F)ccc3c2)c2c(N)ncnc21 | – | – | pH 6.5 | – | 82.2 µM |
| Cc1ccc(N2C(=O)c3ccccc3NC23C(=O)N(C)c2ccc(Br)cc23)cc1 (stereo not shown) | dried DMSO stock | PBS | pH 7.4 | – | 0.2 to 1.4 µM |
| Nc1ccn(CC2COP(=O)(OCCCCCCNC(=O)CCCCC3SCC4NC(=O)NC43)CO2)c(=O)n1 (mixture of isomers) | – | – | – | – | 17300 ± 1020 µg/mL |
| NS(=O)(=O)c1ccc(C(=O)NC2OC[C@H](O)[C@H](O)[C@H]2O)cc1 (stereo in doubt) | – | water | – | – | 1.5% |
| C=C(c1cc(F)c(C(=O)O)c(F)c1)c1cc2c(cc1C)C(C)(C)CCC2(C)C | – | deionized water | 24 h, 20 °C | – | 58 ± 1 µM |
| COc1cc(-c2nc3ccc(C(=O)NCCCN4CCN(c5cccc(C)c5C)CC4)cc3n2C2CCC2)cc(OC)c1OC | dynamic solubility | – | – | – | 10.4 µM |
| NS(=O)(=O)c1ccc(C(=O)N[C@@H]2O[C@H](CO)[C@@H](O)[C@H](O)[C@H]2O)cc1 | – | water | – | – | 1% |
| O=C(O)c1ccc(/C=C2\SC(=S)N(Cc3cccc(C(F)(F)F)c3)C2=O)cc1 | – | DMSO:Solutol HS 15:saline | pH 9.0, 10%:10%:80% | – | 5000 µg/mL |
